Published values pooled from the literature.
Protocols differ between the studies behind these lines. Numbers after ± are the reported error. Values after ≈ are worked out from the molar mass of the structure shown. Non-standard residues stand in square brackets, D forms with d. No end group written: not given here. The star is where a group is joined.
ESR2: Estrogen receptor beta (ESR2, Homo sapiens, UniProt Q92731)
CNR2: Cannabinoid receptor 2 (CNR2, Homo sapiens, UniProt P34972)
OPRK1: Kappa-type opioid receptor (OPRK1, Homo sapiens, UniProt P41145)
ESR1: Estrogen receptor (ESR1, Homo sapiens, UniProt P03372)
Aequorin-1 C152S/C159S/C187S: Aequorin-1 (Aequorea victoria, UniProt P07164, C152S/C159S/C187S)
lasR: Transcriptional activator protein LasR (lasR, Pseudomonas aeruginosa, UniProt P25084)
Kelch domain-containing protein 2: Kelch domain-containing protein 2 (UniProt Q9Y2U9)

Substance | target | assay | test system | conditions | scale | endpoint | result
Nc1nnc(S)s1 | Peptide deformylase (def, Escherichia coli, UniProt P0A6K3) |  |  | 500 µM, immediately, stock in dimethylformamide | relative to: control | remaining activity | 101%
Oc1cc(O)c2c(c1)O[C@H](c1cc(O)c(O)c(O)c1)[C@H](O)C2 | KDM4E (Homo sapiens, UniProt B2RXH2) | inhibitor, FDH-coupled |  |  | relative to: 20 µM over 2.5 µM ferrous ammonium sulfate | IC50 ratio | 1.1
O=Cc1ccc(CO)o1 | Hemoglobin subunit alpha, with beta chain (HBA1, Homo sapiens, UniProt P69905) | binding, cation-exchange HPLC-UV/Vis |  | 37 °C |  | association rate constant kon | 0.46 mM⁻¹ h⁻¹
CC1N=C(c2ccccc2F)c2cc(N3CCOCC3)ccc2NC1=O (centres unmarked) | ADRA2A (Homo sapiens, UniProt P08913) | ligand displacement, radioligand |  | 10 µM |  | inhibition | -4%
CCOc1c(S)cnn(-c2ccccc2)c1=O | srtA (Staphylococcus aureus, UniProt Q2FV99) | enzyme activity, inhibitor |  | concentration not given |  | potency improvement | > 20 fold
CC(C)c1ccc(NC(=O)Oc2ccc3c(c2)[C@]2(C)CCN(CCc4ccccc4)[C@@H]2N3C)cc1 | CES1 (Homo sapiens, UniProt P23141) | irreversible inhibitor |  | 5× IC50 or 200 µM, 1 h, preincubation then inhibitor removal, added: o-nitrophenyl acetate substrate |  | remaining activity | 0%
Cc1cc(-c2cc(-c3cc(C)c(O)c(C)c3)c(-c3cc(C)c(O)c(C)c3)[se]2)cc(C)c1O | ESR2 | antagonist | HEK293T | highest tested concentration, 24 h, added: estradiol 10 nM | relative to: estradiol alone | efficacy | 79 ± 7%
CC1(NC(=O)c2nn(Cc3ccc(F)cc3)c3ccccc23)CCCN(CC(N)=O)C1 (centres unmarked) | CNR2 | calcium mobilization, agonist | CHO-K1 expressing Gαq16 |  | relative to: CP55,940 maximum | Emax | 102 ± 3%
O=Cc1ccc(COc2ccccc2)o1 | Hemoglobin subunit alpha, with sickle beta chain (HBA1, Homo sapiens, UniProt P69905) | oxygen affinity | sickle red cell lysate | 2000 µM | relative to: untreated | P50 change | 45.4 ± 14.6%
Cc1cccc(Oc2ccc(C(=O)N[C@H](CN3CCN(c4cccc(O)c4)[C@@H](C)C3)C(C)C)cc2)c1 | OPRK1 | antagonist | CHO | added: U69593 |  | Ke | 0.17 ± 0.04 nM
RYRDPTGMYY | PIM1 (Homo sapiens, UniProt P11309) | substrate, coupled enzyme | peptide | pH 7.4, room temperature, added: 1 mM ATP, 20 mM MgCl2 |  | kcat | 1.8 ± 0.1 s⁻¹
C/C(=C\c1csc(C)n1)[C@@H]1C[C@@H]2O[C@]2(C)CCC[C@H](C)[C@H](O)[C@@H](C)C(=O)C(C)(C)[C@@H](O)CC(=O)O1 | microtubules (bovine, glutaraldehyde-fixed) | competitor |  | 25 µM, added: [3H]peloruside A 2.5 µM |  | [3H]peloruside A bound per tubulin | 0.78 ± 0.033
Cc1cc(O)ccc1-c1c[se]cc1-c1ccc(O)cc1C | ESR2 | antagonist | HEK293T | highest tested concentration, 24 h, added: estradiol 10 nM | relative to: estradiol alone | efficacy | 94 ± 10%
GYWSDYWGMTTH | HIV-1 neutralising antibody 4E10 | phage binding, M13 phage ELISA | peptide | concentration not given | lower = stronger binding | binding titer | 2.3e+08 M13/mL
CC(C)[C@@H](CN1CCN(c2cccc(O)c2)[C@@H](C)C1)NC(=O)c1ccc(Oc2ccccc2O)cc1 | OPRK1 | antagonist | CHO | added: U69593 |  | Ke | 1.06 ± 0.26 nM
Oc1ccc(-c2c[se]cc2-c2ccc(O)cc2F)c(F)c1 | ESR1 | antagonist | HEK293T | highest tested concentration, added: estradiol 10 nM | relative to: estradiol alone | efficacy | 67 ± 3%
CC[C@H](C)[C@H](NC(=O)[C@@H]1CSSC[C@@H]2NC(=O)[C@H]([C@@H](C)O)NC(=O)[C@H](C(C)C)NC(=O)CNC(=O)[C@H](CC(N)=O)NC(=O)[C@@H](NC(=O)[C@@H]3CCCN3C(=O)[C@H](CC(N)=O)NC(=O)[C@H](CC(N)=O)NC(=O)[C@H](CC(C)C)NC(=O)[C@H](Cc3ccc(O)cc3)NC(=O)[C@H](CCCCN)NC(=O)[C@H](CO)NC(=O)[C@@H](N)CC(N)=O)CSSC[C@H](NC(=O)[C@H](CCCNC(=N)N)NC(=O)[C@H](Cc3ccc(O)cc3)NC(=O)CNC(=O)[C@H](CO)NC(=O)[C@@H]3CCCN3C2=O)C(=O)N[C@@H](CO)C(=O)N[C@@H]([C@@H](C)CC)C(=O)N[C@@H](C(C)C)C(=O)N[C@@H](CC(=O)O)C(=O)N[C@@H](CCCCN)C(=O)N[C@@H](CCC(N)=O)C(=O)N1)C(=O)N[C@@H](CCCCN)C(=O)N[C@@H](CCCCN)C(=O)N[C@@H](CCC(=O)O)C(=O)O | Trpv1 (Mus musculus, UniProt Q704Y3, E571A) | agonist, outside-out patch |  | 300 µM, after desensitisation |  | single-channel conductance | 65.8 ± 6.7 pS
CC(C)(NC(=O)c1nn(CC2CCOCC2)c2ccccc12)c1cccc(C(N)=O)c1 | CNR2 | calcium mobilization, agonist | CHO-K1 expressing Gαq16 |  | relative to: CP55,940 maximum | Emax | 57 ± 3%
O=[PH](O)O | Orotidine 5'-phosphate decarboxylase (Saccharomyces cerevisiae S288c, UniProt P03962, D37G) | activated decarboxylation of FO, activator |  | pH 7.0, 25 °C, upper limit, ionic strength 0.15 |  | (kcat/Km)/Kd | 0.0007 ± 0.00012 M⁻² s⁻¹

Substance | target | assay | test system | conditions | scale | endpoint | result
Oc1ccc(-c2cc(Cl)c(Cl)c(Cl)c2Cl)cc1Cl | Aequorin-1 C152S/C159S/C187S | aequorin bioluminescence, inhibitor |  | 2 h, added: coelenterazine |  | detection limit | 0.5 µM
CCCCC/C=C\C/C=C\C/C=C\C/C=C\CCCC(=O)NCCO | FABP1 (Homo sapiens, UniProt P07148) | binding, DAUDA displacement |  | concentration not given | relative to: no competitor | remaining fluorescence | 66 ± 5.7%
Ac-LDEVD-pNA (N-acetyl, C-pNA; pNA = O=[N+]([O-])c1ccc(N*)cc1) | Caspase-3 (CASP3, Homo sapiens, UniProt P42574) | substrate, colorimetric p-nitroanilide release |  | pH 7.5, room temperature |  | kcat | 0.883 ± 0.05 s⁻¹
CC(C)C[C@H](NC(=O)CNC(=O)[C@H](CC(C)C)NC(=O)[C@@H]1CCCN1C(=O)CNC(=O)[C@H](Cc1ccccc1)NC(=O)Cc1ccc2ccccc2c1)C(=O)N[C@@H](CCCNC(=N)N)C(=O)N[C@@H](CO)C(=O)N[C@@H](CCCCN)C(=O)O | MMP9 (Homo sapiens, UniProt P14780) | substrate, HPLC |  | 500 µM, 72 h, pH 7.5, 37 °C |  | hydrolysis product | 77%
O=C(CCc1cc2ccccc2[nH]1)NC1CCSC1=O (centres unmarked) | lasR | reporter gene, agonist | PAO1 MW1 pUM15 | 10 µM, added: OdDHL |  | activation | > 20%
Oc1ccc(-c2ccc(-c3ccc(O)cc3F)[se]2)c(F)c1 | ESR2 | antagonist | HEK293T | highest tested concentration, 24 h, added: estradiol 10 nM | relative to: estradiol alone | efficacy | 91 ± 6%
Oc1cccc(-c2cc(Cl)ccc2Cl)c1O | Aequorin-1 C152S/C159S/C187S | aequorin bioluminescence, inhibitor |  | 2 h, added: coelenterazine |  | detection limit | 132 µM
LRELPPEERPAAGA | Kelch domain-containing protein 2 | native mass spectrometry | peptide, 200 mM ammonium acetate | 20 µM Kelch domain-containing protein 2, pH 7 | relative to: total Kelch domain-containing protein 2 signal | fraction of protein bound | 0.5%
Clc1ccc(C2CC3CCC2N3)cn1 (racemic) | Chrnb2/Chrna6 (Rattus norvegicus, UniProt P12390+P43143, L273S/L280S/L348M/R364A/R365A/R367A) | ion current, agonist |  | concentration not given, rat receptor, unit not given | relative to: acetylcholine maximum current | efficacy | 0.54 ± 0.02
LGWATAGG | Kelch domain-containing protein 2 | native mass spectrometry | peptide, 200 mM ammonium acetate | 20 µM Kelch domain-containing protein 2, pH 7 | relative to: total Kelch domain-containing protein 2 signal | fraction of protein bound | 1.1%
CC[C@H]1O[C@]2(C)[C@H](OC(C)=O)[C@@]1(C)O[C@@H](/C=C/C=C/C=C/c1oc(=O)cc(OC)c1C)[C@@H]2O | atpD, in F1Fo complex (Escherichia coli, UniProt P0ABB4) | ATP hydrolysis, single-molecule FRET | liposome-reconstituted F1Fo-ATPase |  |  | dwell time decay constant | 28 ± 3 ms
O=c1[nH]c(/C=C/c2ccc[nH]2)c([N+](=O)[O-])c(=O)[nH]1 | Riboflavin synthase (ribC, Escherichia coli, UniProt P0AFU8) | enzyme activity, substrate | Escherichia coli, recombinant riboflavin synthase | pH 7.0 |  | Ks | 2.9 ± 0.2 µM
Cc1cc(O)cc(C)c1-c1ccc(-c2c(C)cc(O)cc2C)[se]1 | ESR1 | antagonist | HEK293T | highest tested concentration, added: estradiol 10 nM | relative to: estradiol alone | efficacy | -22 ± 8%
CC[C@H](C)[C@H](NC(=O)[C@H](CCCCN)NC(=O)[C@H](Cc1ccccc1)NC(=O)[C@H](CCCCNC(=O)[C@H](CC(C)C)NC(=O)[C@@H]1CCCN1C(=O)[C@H](CCCCN)NC(=O)CCS[C@@H]1O[C@H](CO)[C@H](O)[C@H](O)[C@H]1O)NC(=O)[C@H](CC(C)C)NC(=O)[C@@H]1CCCN1C(=O)[C@H](CCCCN)NC(=O)CCS[C@@H]1O[C@H](CO)[C@H](O)[C@H](O)[C@H]1O)C(N)=O | lecA (Pseudomonas aeruginosa, UniProt Q05097) | hemagglutination, inhibitor | rabbit erythrocytes | 30 min, 4 °C |  | MIC | 630 µM (≈ 1080 µg/mL)
PIL[pS]EGASR (phospho-Ser4; pS = N[C@@H](COP(=O)(O)O)C(=O)O) | CTD nuclear envelope phosphatase 1 (CTDNEP1, Homo sapiens, UniProt O95476) | substrate, MESG-coupled phosphate release |  | 25 °C |  | kcat | 0.17 ± 0.01 s⁻¹
O=C(Cc1ccccc1F)N[C@H]1CCOC1=O | lasR | reporter gene, agonist | Escherichia coli JLD271/pJN105L/pSC11 | 100 µM | relative to: OdDHL 100 µM | activation | -4%
CC1=C(/C=C/C(C)=C/C=C/C(C)=C/C(=O)O)C(C)(C)CCC1 | RARA (Homo sapiens, UniProt P10276) | reporter gene, agonist, luciferase | HEK-293T | 1 nM |  | induction | 1.73
CCOC(=O)CN(CCN(CCN(CC(=O)O)CC(=O)O)CC(=O)O)CC(=O)O | americium(III) | americium-241 binding, solvent extraction |  | pH 1.3 | relative to: compound over DTPA, higher = weaker binding | ligand concentration ratio | 5 fold
C[C@@H](NC(=O)[C@@H](N)Cc1ccc(O)cc1)C(=O)NCC(=O)N(C)[C@@H](Cc1ccccc1)C(=O)NCCO | Oprd1/Oprm1 (Rattus norvegicus, UniProt P33533+P33535) | delta-mu receptor heterodimer |  | 1 µM, added: mu agonist 0.5 µM |  | heterodimer lifetime | 369 ± 11 ms
